{"data": "Measurements of several laboratories", "note": "Every numbered part comes from another study and shows a few of its results, in no order."}
{"data": "Series 1", "target": "PABPC1L2, full length, GST fusion (mouse, UniProt A0ABA7IW68)", "technique": "RNAcompete", "molecule type": "RNA", "matrix": "in vitro", "tested at": "20 nM", "setting": "7-mer, probes averaged, single round", "reference": "mean of 7-mers", "reading": "higher = stronger binding", "Residues (chain)": "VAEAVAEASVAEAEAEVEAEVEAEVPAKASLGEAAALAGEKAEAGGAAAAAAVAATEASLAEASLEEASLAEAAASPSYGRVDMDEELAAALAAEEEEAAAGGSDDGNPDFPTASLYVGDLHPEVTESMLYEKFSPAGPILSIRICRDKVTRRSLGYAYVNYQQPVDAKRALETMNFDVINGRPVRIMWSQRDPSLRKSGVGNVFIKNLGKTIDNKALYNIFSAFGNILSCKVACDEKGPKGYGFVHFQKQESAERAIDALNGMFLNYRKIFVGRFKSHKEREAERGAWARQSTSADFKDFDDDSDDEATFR"}
{"Oligonucleotide": "CCAGCGU", "7-mer Z-score": -0.275}
{"Oligonucleotide": "AAUCGCA", "7-mer Z-score": 0.273}
{"Oligonucleotide": "UGCAUAU", "7-mer Z-score": -0.17}
{"Oligonucleotide": "UUGGGGG", "7-mer Z-score": 0.224}
{"Oligonucleotide": "CGAGGGA", "7-mer Z-score": 0.135}
{"Oligonucleotide": "CGUGAGA", "7-mer Z-score": -0.238}
{"Oligonucleotide": "UGAGUAG", "7-mer Z-score": -0.246}
{"Oligonucleotide": "GUUUGUU", "7-mer Z-score": -0.507}
{"Oligonucleotide": "ACCCGAG", "7-mer Z-score": -0.0971}
{"Oligonucleotide": "CGAGCAA", "7-mer Z-score": 0.0569}
{"Oligonucleotide": "CGGUGGA", "7-mer Z-score": 0.224}
{"Oligonucleotide": "AGUAGCU", "7-mer Z-score": -0.193}
{"Oligonucleotide": "UAAGUCU", "7-mer Z-score": -0.289}
{"Oligonucleotide": "GGAUUCG", "7-mer Z-score": -0.195}
{"Oligonucleotide": "UACGUAA", "7-mer Z-score": -0.202}
{"Oligonucleotide": "GGCUUGG", "7-mer Z-score": 0.0533}
{"Oligonucleotide": "ACUUUUU", "7-mer Z-score": -0.0754}
{"Oligonucleotide": "UGUGUAU", "7-mer Z-score": -0.306}
{"data": "Series 2", "target": "RING finger protein unkempt homolog, zinc fingers 1-6, GST-SBP tag (UNK, Homo sapiens, UniProt Q9C0B0, residues 30-357)", "technique": "RNA Bind-n-Seq", "molecule type": "RNA", "matrix": "in vitro", "tested at": "not given", "setting": "RNA with constant flanks, human and mouse sites, ends assumed", "reference": "input RNA pool", "reading": "higher = stronger binding", "constant ends, left off below": "GGGAGUUCUACAGUCCGACGAUC … CAACAGAGGAUUGAGCAUCA", "Residues (chain)": "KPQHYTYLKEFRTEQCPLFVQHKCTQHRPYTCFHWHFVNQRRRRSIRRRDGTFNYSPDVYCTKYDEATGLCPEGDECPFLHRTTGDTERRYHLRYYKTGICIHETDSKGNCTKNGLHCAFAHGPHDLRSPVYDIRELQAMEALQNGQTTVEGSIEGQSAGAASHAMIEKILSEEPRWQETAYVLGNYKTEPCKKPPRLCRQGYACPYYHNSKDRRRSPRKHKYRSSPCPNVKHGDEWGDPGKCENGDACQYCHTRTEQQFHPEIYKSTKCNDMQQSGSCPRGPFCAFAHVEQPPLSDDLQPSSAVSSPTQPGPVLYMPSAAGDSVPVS"}
{"Oligonucleotide": "UCUGCCACCCCGAGGAGCAGCAGCUCAGCUUCAUCGAGCGCCUGGUGGAGAUGGCCAGCAGCCUGGCCAUCCGCGAGUGGCGGCGGCUGCCCCACGUAGUGUCCCACGUGCACACGCCUC", "bound/input enrichment [ratio]": 0.0572}
{"Oligonucleotide": "GGCUAUUUAUUGCAUUCUCCUUUGUAAACCCAGUCUAGGGUAAGCUUAAUACUUUACCCACAGGGUAGCUCUUCAGAAAACCUAAUCAGUCUAUUUUGUGCCCAGGUUUGUGUGUGUGUG", "bound/input enrichment [ratio]": 0.33}
{"Oligonucleotide": "AGAUGCAGAGAAAGGGACUCAGAUGAUACUUGUAGGCAGCAUAAUACGUCAAAAAGUCCAUUUAGGGAAAUGGAACCUUUGUUGUCACCACACCAUGAUAAACUCAUGUCUUUGCCAGUU", "bound/input enrichment [ratio]": 0.257}
{"Oligonucleotide": "UGUGAUAAAAUAAACAGUGAGAUUCCCCCACUGCCUUUCCCUUCAUCAAGGGAACACCAUAAUUUUCUUAAGCUGUGCCUGAAGUUGCUUUCAAAUCACCUUGCUCUGGCCCUGGCGGGA", "bound/input enrichment [ratio]": 0.292}
{"Oligonucleotide": "GGGUAUGAUUUGGGUGUGGAGACCUCUCAGGUUGGGACUUCUUGUCAGCUUGGACCCCUGACCAGUGGGCUUUGGCUUCUCCAGCCGCCUCCAGUGCUGCGUGAUUUGAUUCUGUUGUAC", "bound/input enrichment [ratio]": 0.146}
{"Oligonucleotide": "GUGACUCAAGCUGCACCACCCACACCUACUCCUCCAGUGCCCCCAGCAAAAAAGCAGCCAGCUUUCCCUGCUUCUUACAUUCCACCCUCUCCCCCUACCCCUCCUGUUCCAGUACCCCCG", "bound/input enrichment [ratio]": 0.724}
{"Oligonucleotide": "UUGCUUGAGAUGAACCUUAUGCACGCACCUCAAGUUGCAGAUGCCAUUCUCGGGAAUCAGAUGUUCACCCACUAUGACCGGGCUCAUAUCGCCCAGCUGUGUGAGAAGGCGGGCCUGCUG", "bound/input enrichment [ratio]": 0.0877}
{"Oligonucleotide": "AUUGAGAAGGCUGGAAAUUCCAGCAACGCAACACAAGUAGUCACGGACAUUGGAAUUACUGACGCUACAGUCACUGAAUUAAUACCUGGCUCAUCAUACACAGUGGAGAUCUUUGCACAA", "bound/input enrichment [ratio]": 0.138}
{"data": "Series 3", "target": "Ras GTPase-activating protein-binding protein 1, full length (G3BP1, Homo sapiens, UniProt Q13283)", "technique": "RNA Bind-n-Seq", "molecule type": "RNA", "matrix": "in vitro", "tested at": "200 nM", "setting": "whole 134-nt RNA, ends assumed", "together with": "150 mM KCl", "reference": "input library", "reading": "higher = stronger binding", "constant ends, left off below": "GGGAGUUCUACAGUCCGACGAUC … UGGAAUUCUCGGGUGUCAAGG", "UniProt Q13283, sequence (whole entry, looked up)": "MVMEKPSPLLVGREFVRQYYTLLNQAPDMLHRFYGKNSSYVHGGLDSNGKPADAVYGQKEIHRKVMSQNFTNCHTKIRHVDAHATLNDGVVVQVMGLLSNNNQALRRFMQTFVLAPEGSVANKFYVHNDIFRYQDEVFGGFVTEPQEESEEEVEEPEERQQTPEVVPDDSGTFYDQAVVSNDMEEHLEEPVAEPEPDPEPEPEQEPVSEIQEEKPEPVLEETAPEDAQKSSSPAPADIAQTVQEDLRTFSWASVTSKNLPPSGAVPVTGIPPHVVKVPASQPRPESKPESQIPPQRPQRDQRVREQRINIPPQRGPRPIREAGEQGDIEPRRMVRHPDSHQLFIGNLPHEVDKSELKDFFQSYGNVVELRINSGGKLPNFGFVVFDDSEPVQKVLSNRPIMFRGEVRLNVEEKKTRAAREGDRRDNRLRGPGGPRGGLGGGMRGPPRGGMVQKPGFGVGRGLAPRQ"}
{"Oligonucleotide": "AAGUCCUGUGCUACACAUCGUAUGUACCGAAUCAAACCCAAAUUUUUAAAUUUAAAAAAGUAUUAUGUUACGCCGUUCGGAUCUGCACUU", "log2 enrichment": -0.37}
{"Oligonucleotide": "AAGUCCUGUGCUACACAUCGUAUGUACCGAAUCGGGAAAAAGGGUUUUUGGGAGGGAAAGUAUUAUGUUACGCCGUUCGGAUCUGCACUU", "log2 enrichment": 0.256}
{"Oligonucleotide": "CCUCAAGUCCUGUGCUACACAUCGUAUGUACCGAAUCGGGAAGGAAGGAAGGGAAAGUAUUAUGUUACGCCGUUCGGAUCUGCACUUCCA", "log2 enrichment": -0.538}
{"Oligonucleotide": "CAUGUUGAAAGACAUGCUUUUAUUUUUUUGUAAAACAAUAUAGGAGCUGUGUCUACUAUUAAAAGUGAAACAUUUUGGCAUGUUUGUUAA", "log2 enrichment": -2.33}
{"Oligonucleotide": "AGUCCUGUGCUACACAUCGUAUGUACCGAAUCGGAAAGGUUUUUUUGGAAAAAAAGGAAAGUAUUAUGUUACGCCGUUCGGAUCUGCACU", "log2 enrichment": -1.68}
{"Oligonucleotide": "CUGUGCUACACAUCGUAUGUACCGAAUCGGGGAAAAAAAGGGGAAAAAAAGGAAAAAAAGGGAAAGUAUUAUGUUACGCCGUUCGGAUCU", "log2 enrichment": -0.604}
{"Oligonucleotide": "AAAGCAAGAGAUGGCUAGUGCUUCAUCCAGCCAAAGAGGUAUGCUUGUUGCUUAAUUAAACCUUAAAGGUAACUUUGAGUUACUCCAGUA", "log2 enrichment": -1.28}
{"Oligonucleotide": "CACAGACAACACGCACCCACACAGACACAGAGAGAAGGGGUUGGGAUGGGGACAGGGUGCACAGCAGGGCGGGGUAGGACCCCAGCCCCU", "log2 enrichment": 1.74}
{"Oligonucleotide": "CACAGACAACACGCACCCACACAGACACAGAGGGAAGGGGUUGGGAUGGGGACAGGGUGCACAGAAGGGCGGGGUAGGACCCCAGCCCCU", "log2 enrichment": 1.83}
{"data": "Series 4", "target": "RNA binding protein fox-1 homolog 2, RRM domain, GST-SBP tag (RBFOX2, Homo sapiens, UniProt O43251-10, residues 100-194)", "technique": "RNA Bind-n-Seq", "molecule type": "RNA", "matrix": "in vitro", "tested at": "365 nM", "setting": "natural RNA segment, single round, ends assumed", "reference": "no-protein control", "reading": "higher = stronger binding", "constant ends, left off below": "GGGAGUUCUACAGUCCGACGAUC … UGGAAUUCUCGGGUGCCAA", "Construct (chain)": "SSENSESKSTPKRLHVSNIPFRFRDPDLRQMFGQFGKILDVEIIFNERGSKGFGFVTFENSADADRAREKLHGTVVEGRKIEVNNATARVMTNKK"}
{"Oligonucleotide": "CUGCUGCAGGGAGGCCUGGCCUAUUUUUUCUUAAAACAUAUUUUAUAAAACUACAACCUGAUCUACCCUCCAGGGCCUCCUCAGUUCCACUGAUUGAAAUUUUCUUCUUC", "RBNS enrichment (R)": 0.375}
{"Oligonucleotide": "UAACUAGGACCAUUUUCCUGAAUUGGACUAUAUAACUCAGCAGUAUGUUUCAGUCUUUCGGAGUAAAUCACAUUUGUGAUAAUCAUACUAGAUCUCUGUCUUCAGUCUCA", "RBNS enrichment (R)": 0.435}
{"Oligonucleotide": "AUUCCUGCCUGAUUCUGGGUCCGUCCUGACCUCCAAAGGUCAGCUUGGUGCUUGAGGUCUCCCUGCUCUUGGUGGCAGUGGUAGCAGCAACAGCAGCAGCAGCAGCAGCA", "RBNS enrichment (R)": 0.413}
{"Oligonucleotide": "CCUUUUCUGUGCGCCUGUUCUGAAGCCAACUUAAACCUGUCCACAUCUUCACUACCAUUCGCCCUUUCUGCUGAAGGAAUGGUGACGUGUUCCCAGGAGAACUGGGAGGC", "RBNS enrichment (R)": 0.269}
{"Oligonucleotide": "GUGUUUCCCCAACUUCUCCCUUUUAGCAGGGUCCCUUUAGAGCCCAACUCCAGGUCAAAUCUGGAGCUCAAAUCCCAGUGCUCCCUCCCCAGGAGUGGGGCCCCAACUCU", "RBNS enrichment (R)": 0.358}
{"Oligonucleotide": "GGACAUUAAGGCGAUUGGAGUUAUACUUGGAAAAGAAAGUUCUGGCCACAGUACAGAGCAUGGCCCGUUGAGCUGUUGGGGGGGUUAUUGCUGCAACCAAGGCUUGAGUG", "RBNS enrichment (R)": 1.07}
{"Oligonucleotide": "GCUCCAGCAGGAACUACCUUUCUGAACCCGCGGAGACCCGCAUAAGCCUGACCCCUUGCUUCCUCCCCGCCCCCCAGUGCGUUCUGUGAUCGCCAAGUUCAAAGCUGUGC", "RBNS enrichment (R)": 0.778}
{"Oligonucleotide": "AAGUAACACAGAUUCCCUGAUUUUUUUUUUUAAAAAACUAAAAAGAUCUCUAAACCUUCUUACAUAGAAAGCAUCCCUAUAAUCUAUAGGGAGAGGCGGGGAAUAAAGUG", "RBNS enrichment (R)": 0.474}
{"note": "Repeated from above (series 1):"}
{"Oligonucleotide": "UAAGUCU", "7-mer Z-score": -0.289}
{"Oligonucleotide": "GGAUUCG", "7-mer Z-score": -0.195}
{"Oligonucleotide": "UACGUAA", "7-mer Z-score": -0.202}
{"Oligonucleotide": "GGCUUGG", "7-mer Z-score": 0.0533}
{"Oligonucleotide": "ACUUUUU", "7-mer Z-score": -0.0754}
{"Oligonucleotide": "UGUGUAU", "7-mer Z-score": -0.306}
